# Measured values from different studies.
# Lines come from different studies, so protocols differ.
# Sequence of UniProt Q13557 (whole entry, looked up): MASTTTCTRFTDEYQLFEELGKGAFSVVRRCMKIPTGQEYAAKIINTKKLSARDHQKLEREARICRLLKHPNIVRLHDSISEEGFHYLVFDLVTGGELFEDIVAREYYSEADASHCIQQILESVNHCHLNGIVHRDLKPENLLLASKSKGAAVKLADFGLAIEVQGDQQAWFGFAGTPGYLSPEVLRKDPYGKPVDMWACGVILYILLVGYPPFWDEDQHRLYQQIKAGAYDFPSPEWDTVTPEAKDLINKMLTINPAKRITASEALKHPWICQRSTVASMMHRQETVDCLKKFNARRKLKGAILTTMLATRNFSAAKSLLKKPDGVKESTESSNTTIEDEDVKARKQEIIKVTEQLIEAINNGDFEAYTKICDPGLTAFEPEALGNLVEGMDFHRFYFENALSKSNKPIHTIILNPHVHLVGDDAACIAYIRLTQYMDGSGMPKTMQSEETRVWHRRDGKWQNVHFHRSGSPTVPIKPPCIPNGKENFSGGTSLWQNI
# Sequence of UniProt P05182 (whole entry, looked up): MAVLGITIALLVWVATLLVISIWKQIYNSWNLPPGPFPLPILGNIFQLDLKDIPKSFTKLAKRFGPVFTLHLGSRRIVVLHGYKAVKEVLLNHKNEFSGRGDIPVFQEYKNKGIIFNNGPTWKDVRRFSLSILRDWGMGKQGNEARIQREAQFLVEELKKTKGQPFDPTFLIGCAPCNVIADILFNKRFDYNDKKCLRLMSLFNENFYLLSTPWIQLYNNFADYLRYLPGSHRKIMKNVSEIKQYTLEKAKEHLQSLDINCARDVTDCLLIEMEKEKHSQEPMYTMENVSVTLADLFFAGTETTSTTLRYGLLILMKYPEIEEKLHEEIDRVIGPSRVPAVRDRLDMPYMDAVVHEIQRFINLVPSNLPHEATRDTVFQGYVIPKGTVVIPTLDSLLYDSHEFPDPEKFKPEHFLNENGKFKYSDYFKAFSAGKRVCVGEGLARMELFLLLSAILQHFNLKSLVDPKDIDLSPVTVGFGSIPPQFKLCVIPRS
Structure (SMILES),target or system,assay,test system,setting,endpoint,result
CC(C)C[C@H]1C(=O)N(C)[C@@H](CC(C)C)C(=O)N[C@H](Cc2ccc(O)cc2)C(=O)N2CCC[C@@H]2C(=O)N[C@H]([C@H](C)O)C(=O)NCC(=O)NCC(=O)N[C@@H](CO)C(=O)N[C@@H](C(C)C)C(=O)N[C@@H](C)C(=O)N[C@@H](C)C(=O)N[C@@H](Cc2ccccc2)C(=O)N1C,,,aqueous buffer,"18 h, pH 7.4",thermodynamic solubility,590 µM
Cc1ccc(/C=C/C(=O)N[C@H](C(=O)N[C@@H](CC(C)C)C(=O)N[C@H](C=O)C[C@@H]2CCCNC2=O)C(C)C)cc1,A549,"cell growth or viability, MTT",,24 h,CC50,> 100 µM
CC[C@@H](C)[C@H]1NC(=O)[C@@H](Cc2ccc(O)cc2)NC(=O)[C@@H](CCCNC(=N)N)NC(=O)[C@@H](Cc2ccc(O)cc2)NC(=O)[C@H]([C@@H](C)CC)NC(=O)[C@H]([C@@H](C)CC)NC(=O)[C@H](C)NC(=O)[C@H](C(C)C)NC(=O)[C@H](C(C)C)NC(=O)CNC(=O)[C@H](C(C)C)NC1=O,,,aqueous buffer,"18 h, pH 7.4",thermodynamic solubility,238 µM
[2H]c1c([2H])c([C@]2([2H])CCCN2C(=O)C(C)(C)Oc2ccc3cn[nH]c3c2)c([2H])c([2H])c1C([2H])([2H])[2H],"CAMK2D (Homo sapiens, UniProt Q13557)","binding, competition with immobilised ligand",,1 µM,remaining binding,72%
COc1ccc([C@@]23Oc4cc(OC)cc(OC)c4[C@@]24N=C(C2CC2)N[C@@]4(O)[C@H](C(=O)N(C)OC)[C@H]3c2ccccc2)cc1,,metabolic stability,"male CD-1 mouse, liver microsomes","1 µM, pH 7.4",half-life,1.5 min
N=c1c2c(-c3ccccc3)c(-c3ccccc3)n(Cc3ccccc3)c2ncn1[C@H]1CC[C@H](O)CC1,,metabolic stability,"minipig, hepatocytes",1 µM,scaled CLint,9 mL/min/kg
CC(C)C[C@@H]1C(=O)N[C@@H](Cc2ccccc2)C(=O)N2CCC[C@H]2C(=O)N[C@@H]([C@@H](C)O)C(=O)N[C@@H](C(C)C)C(=O)N[C@H]([C@H](C)O)C(=O)N[C@@H](Cc2ccccc2)C(=O)N[C@@H](CCC(N)=O)C(=O)N[C@H](C(=O)O)CSSC[C@H](N)C(=O)N1C,,,aqueous buffer,"18 h, pH 7.4",thermodynamic solubility,457 µM
OC(c1ccc(F)cc1)C(F)(F)CCN1CCC(O)(c2ccc(Cl)cc2)CC1 (racemic),MDR1,,MDCK-MDR1,2 h,efflux ratio,0.84
CC(C)C[C@H](NC(=O)[C@H](Cc1ccccc1)NC(=O)[C@H](Cc1ccccc1)NC(=O)Cc1ccc(-c2ccccc2)cc1)C(=O)N[C@@H](CCCCN)C(=O)N[C@@H](CCCNC(=N)N)C(=O)N[C@H](C(=O)N[C@@H](Cc1c[nH]c2ccccc12)C(=O)N[C@@H](CCCCN)C(=O)N[C@@H](CCCNC(=N)N)C(=O)O)C(C)C,,metabolic stability,"monkey, liver microsomes",15 min,compound remaining,17.3%
C#Cc1ccc2c(c1)C(c1ccccn1)=NCc1c(-c3cnco3)ncn1-2.Cl,,,water,"20 min, 37 °C",kinetic solubility,2800 µg/mL
COc1ccc(/C=C/C(=O)N[C@H](C(=O)N[C@@H](CC(C)C)C(=O)N[C@H](C=O)C[C@@H]2CCCNC2=O)C(C)C)cc1,A549,"cell growth or viability, MTT",,24 h,CC50,> 100 µM
CCOC(=O)C1=C(CN2CCC[C@H]2C(=O)Nc2ccc(B(O)O)cc2)NC(c2nccs2)=N[C@H]1c1ccc(F)cc1Br,HepDES19,"cell growth or viability, MTS",,72 h,CC50,32.5 µM
C=CC(O)CO (stereo not shown),"Cytochrome P450 2E1 (Cyp2e1, Rattus norvegicus, UniProt P05182)","enzyme activity, inhibitor","Fischer 344 rat, liver microsomes","25 mM, 30 min",activity vs control,18%

# For quick reference, copied from above:
Structure (SMILES),target or system,assay,test system,setting,endpoint,result
COc1ccc([C@@]23Oc4cc(OC)cc(OC)c4[C@@]24N=C(C2CC2)N[C@@]4(O)[C@H](C(=O)N(C)OC)[C@H]3c2ccccc2)cc1,,metabolic stability,"male CD-1 mouse, liver microsomes","1 µM, pH 7.4",half-life,1.5 min
